Published values gathered from unrelated publications.
A part holds a random share of what one study measured.

Study 1
Target: Ras GTPase-activating protein-binding protein 1, RRM domain (G3BP1, Homo sapiens, UniProt Q13283)
Sequence of UniProt Q13283 (whole entry, looked up): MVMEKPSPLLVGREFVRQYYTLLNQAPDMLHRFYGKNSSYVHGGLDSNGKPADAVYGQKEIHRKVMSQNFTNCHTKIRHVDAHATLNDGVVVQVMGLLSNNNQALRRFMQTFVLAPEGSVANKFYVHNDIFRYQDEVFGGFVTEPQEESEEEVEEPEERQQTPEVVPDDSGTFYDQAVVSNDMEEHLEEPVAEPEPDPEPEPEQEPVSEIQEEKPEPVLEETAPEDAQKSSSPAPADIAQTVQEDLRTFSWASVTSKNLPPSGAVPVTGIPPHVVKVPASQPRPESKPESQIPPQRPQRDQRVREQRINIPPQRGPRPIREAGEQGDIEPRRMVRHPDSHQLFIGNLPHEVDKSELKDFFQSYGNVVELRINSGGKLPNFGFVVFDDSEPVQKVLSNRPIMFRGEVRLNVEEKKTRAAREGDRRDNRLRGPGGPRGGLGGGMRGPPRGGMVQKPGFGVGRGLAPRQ
Method: RNA Bind-n-Seq
Form: RNA
Medium: in vitro
Tested at: 1 µM
Notes: whole 134-nt RNA, ends assumed
Added: 150 mM KCl
Reference: input library
Reading: higher = stronger binding
Constant ends, left off below: GGGAGUUCUACAGUCCGACGAUC … UGGAAUUCUCGGGUGUCAAGG
| Strand | log2 enrichment |
| --- | --- |
| UUCCCGGAGAACUCGAGUAAAUCUAGAAGUUGCCAGGUUUCAGAACUAUUUAUUCCUUUAAUGUGCAGACGAAGGGAACGUCAUCGUUUG | 0.00891 |
| ACCAUGCAGGUGGGCAUCUUUGGGAAGUCGGGCAAGGGGGGGAUAGGGAGGGGGGUAACACUUUGGGAACAGGUGGUCCCAGGUCGUUUC | -0.464 |
| AGUCCUGUGCUACACAUCGUAUGUACCGAAUCGGGAAAAGGGGAAAAGGGGAAAAGGGAAAGUAUUAUGUUACGCCGUUCGGAUCUGCAC | 0.573 |
| CAAGUCCUGUGCUACACAUCGUAUGUACCGAAUCGGUUUUUUUGGAAAGGAAAGGAAAGUAUUAUGUUACGCCGUUCGGAUCUGCACUUC | -0.217 |
| UAACUUUAGAGGAGGAUCUGAUGGAUAUGGCAGUGGACGUGGAUUUGGGGAUGGCUAUAAUGGGUAGGGAGGAGGACCUGGAGGUGGCAA | -0.243 |
| UGGGAGGUGGAUUUUGUUUAUUUUUUGAGCUCAUUUCCAGGGGUGGGAAUUUUUUUUUAAUAUGUGUCAUGAAUAAAGUUGUUUUUGAAA | 2.08 |

Study 2
Target: Histone acetyltransferase KAT6A, winged helix 2, GST fusion (KAT6A, Homo sapiens, UniProt Q92794, residues 85-181)
Method: protein binding microarray
Form: double-stranded DNA, one strand shown
Medium: in vitro
Tested at: not given
Notes: 8-mer, flanks averaged, mean of 2 arrays, mostly near background
Reference: not given
Reading: higher = stronger binding
Residues (chain): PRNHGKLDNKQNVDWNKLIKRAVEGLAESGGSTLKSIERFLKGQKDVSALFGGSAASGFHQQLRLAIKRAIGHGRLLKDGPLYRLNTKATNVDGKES
| Strand | E-score |
| --- | --- |
| CAGCATCA | 0.176 |
| CTTTACTA | 0.14 |
| CGCCCAAC | 0.139 |
| GTACGGAC | 0.00762 |
| CATAGAAG | 0.0651 |
| ATACTACC | -0.238 |
| AAAATGGT | 0.0114 |
| CTCAGGAA | 0.0639 |
| CGCCGAAC | 0.103 |
| ATCAATGG | -0.237 |
| GAACTAAC | 0.0459 |

Study 3
Target: Interferon regulatory factor 7, full length, phosphomimetic (IRF7, Homo sapiens, UniProt Q92985, residues 1-503, S101K/S471D/S472D/S475D/S476D/S477D/S483D/S484D/S487D)
Method: protein-binding microarray
Form: double-stranded DNA, one strand shown
Medium: in vitro
Tested at: 250 nM
Notes: 60-bp whole probe
Added: salmon DNA 0.4 mg/ml
Reference: random background probes
Reading: higher = stronger binding
Constant ends, left off below: GCCTAGCAC … GTCTTGATTCGCTTGACGCTGCTG
Target sequence (chain): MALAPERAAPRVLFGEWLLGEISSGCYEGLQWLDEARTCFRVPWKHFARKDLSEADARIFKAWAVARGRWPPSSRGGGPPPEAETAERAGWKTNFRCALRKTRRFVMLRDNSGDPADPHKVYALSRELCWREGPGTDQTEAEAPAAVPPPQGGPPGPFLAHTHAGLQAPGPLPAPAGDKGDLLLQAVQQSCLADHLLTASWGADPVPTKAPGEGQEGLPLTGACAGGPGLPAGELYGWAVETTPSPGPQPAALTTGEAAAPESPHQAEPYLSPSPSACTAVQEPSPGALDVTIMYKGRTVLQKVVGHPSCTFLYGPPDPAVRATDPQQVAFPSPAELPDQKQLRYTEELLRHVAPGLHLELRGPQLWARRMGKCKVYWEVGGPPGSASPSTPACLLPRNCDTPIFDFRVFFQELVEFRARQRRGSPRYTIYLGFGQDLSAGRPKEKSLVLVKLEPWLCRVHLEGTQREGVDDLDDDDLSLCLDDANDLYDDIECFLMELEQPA
| Strand | log fluorescence |
| --- | --- |
| TTAGGTCTAGGACTGGGTTAGTGCTAG | -0.111 z-score |
| TTAGATCTCAGTCTCGATTTGTGCTAG | 5.11 z-score |
| TCAATTTTCGTTTTTATACTGTGCTAG | 7.31 z-score |
| GACGGTTTCGACATTGGGGACGTGCTA | 6.47 z-score |
| TTAGGTCTTCTTCTCCTTTAGTGCTAG | 0.669 z-score |
| GACGGACTGGGTCCCGGGACGTGCTAG | -0.243 z-score |
| TGAGAACTGAGTCTCGATTAGTGCTAG | 0.872 z-score |
| TTAGATATCGGGTTTCGATGAGTGCTA | 1.64 z-score |
| TTAGGTTTCGGGATTGGGTTAGTGCTA | 7.24 z-score |

Further values, each from its own experiment
| Molecule | target | test | test system | setting | scale | endpoint | value |
| --- | --- | --- | --- | --- | --- | --- | --- |
| PhoQ, residues 284 288 289 292 302 303 SASVAL | PhoP, residues 12 14 15 18 19 MHTVL (Escherichia coli, UniProt P23836) | Sort-seq, measured: YFP reporter | E. coli | PhoQ-PhoP variant library, added: 10 µM Mg2+ | reference: high Mg2+ state, higher = stronger signaling | fold induction | 11.7 |

For quick reference, copied from above (study 2):
| Strand | E-score |
| --- | --- |
| CAGCATCA | 0.176 |
| CTTTACTA | 0.14 |
